Measured values pooled from the literature.
Each line is one published result; not all experiments were run side by side. Values joined by “and” are separate records of one study, mostly repeats; a detail may differ.
Target: Tyrosine-protein kinase receptor TYRO3 (TYRO3, Homo sapiens, UniProt Q06418)

COc1cc(Nc2nccc(-c3cnn4nc(OC)ccc34)n2)cc(C(F)(F)F)c1 gave a remaining binding of 100% (binding, competition with immobilised ligand; 1 µM).
The remaining binding of CC(C)=CC1OC(C)(C)C2C=C3C(=O)C(Cl)=CC(O)C3C3C(O)C4OC4C(=O)C132 (stereo not drawn) is reported as 86% (cell-free assay, competition with immobilised ligand; 10 µM).
For COc1c(OCCCN2CCOCC2)ccc2c1N=C(NC(=O)c1cnc(N)nc1)N1CCN=C21, the remaining activity was 91% (kinase activity, inhibitor; 1 µM; relative to: untreated control).
With NC(=O)[C@@H](O)C[C@H]1CCc2sc3ncnc(O[C@H]4CC[C@H](N5CCOCC5)CC4)c3c21 the inhibition was 2% (enzyme activity, inhibitor; 10 µM).
Cc1cccc(O[C@H]2CCC[C@@H](C(C)CNCc3ccncc3)C2)c1 (relative stereo) gave an inhibition of -3% (cell-free assay; 1 µM).
With CN1CC[C@@H](COc2cnc(C#N)cc2-c2ccn3nc(NC(=O)C4CC4)cc3c2)C1 the inhibition was 14% (enzyme activity, inhibitor; 1 µM).
C=CC(=O)Nc1cccc(-c2cnc3[nH]cc(C(=O)NC(C)(C)C)c3n2)c1 gave an inhibition of 10% and 7% (kinase activity; 0.1 µM).
For Nc1ncc2c(n1)-c1c([nH]c3ccc(C4=CCOCC4)cc13)CCC2, the remaining binding was 100% (binding, competition with immobilised ligand; 1 µM).
The remaining binding of CNC1C[S+]2CC[S+]3CC[S+](C1)[Ru-4]321([N]=C=S)[n]2c3ccc(OC)cc3c3c4c(c5cc(F)c[n+]1c5c32)C(=O)NC4=O (stereo not drawn) is reported as 94% (KinomeScan; 0.1 µM; relative to: untreated).
With Cc1ccc(-c2c(/C=C(\C#N)C(=O)NC(C)C)n(CCCO)c3ncnc(N)c23)cc1 the remaining binding was 82% (cell-free assay, competition with immobilised ligand; 1 µM).
COc1c(Cl)cccc1Nc1c(-c2ccncc2C#C[C@@]2(C)CCCN2C(=O)/C=C/CN(C)C)[nH]c2c1C(=O)NCC2 has a remaining binding of 100% (cell-free assay, competition with immobilised ligand; 3 µM).
The remaining binding of CCN1CCN(Cc2ccc(NC(=O)c3ccc(C)c(NC(=O)c4cncc(-c5cnn(C)c5)c4)c3)cc2C(F)(F)F)CC1 is reported as 58% (binding, competition with immobilised ligand; 1 µM).
For C=CC(=O)N1Cc2nc(-c3cc(-c4cc(Cl)cnc4Cl)c(F)cc3F)n(-c3ccncn3)c2C1, the inhibition was 5.3% (cell-free assay; 1 µM).
COc1ccc(NC(=O)Nc2ccc3c(c2)C(=O)N(C(C)CO)CC(C)C(CN(C)Cc2ccc4c(c2)OCO4)O3)cc1 (stereo not drawn) gave a remaining activity of 99% (kinase activity, KinaseProfiler; 0.03 µM, species human; relative to: control).
For CCn1cc(C(=O)O)c(=O)c2c(N)c(F)c(NC3CCCCC3)cc21, the inhibition was -6.8% (kinase activity; 0.1 µM, added: ATP at Km).
